Published values from different studies.
Every numbered part comes from another study and shows a few of its results, in no order. Substitutions count along the parent as printed.

Block 1
Target: CCNA1, cyclin fold, Cln2 fusion (human)
Technique: yeast growth competition, sequencing
Matrix: yeast
Notes: weak parent motif
Reference: not given
Direction: higher = stronger binding
Measurement: normalised enrichment score
Parent: SLBP docking peptide (human); ARYKRKLLINDFG
Change = ARYKRKLWINDFG [L8W]; value = 0.519
Change = ARYKRKLLINDFS [G13S]; value = -0.0814
Change = ARYKRDLLINDFG [K6D]; value = 0.224
Change = ARYKRKLLFNDFG [I9F]; value = 0.193
Change = ARYKRKHLINDFG [L7H]; value = 0.189
Change = ARYKRHLLINDFG [K6H]; value = -0.00448
Change = KRYKRKLLINDFG [A1K]; value = 0.311
Change = ARYKRKYLINDFG [L7Y]; value = 0.492
Change = ARYKRKLLINDLG [F12L]; value = 0.251
Change = ARYKRKLSINDFG [L8S]; value = 0.102
Change = ARYKRMLLINDFG [K6M]; value = 0.0371
Change = ARYKRKLVINDFG [L8V]; value = 0.415
Change = ARYKRKKLINDFG [L7K]; value = 0.242
Change = ARYPRKLLINDFG [K4P]; value = 0.284
Change = ARYKRKCLINDFG [L7C]; value = 0.0566
Change = ARYKRWLLINDFG [K6W]; value = 0.545

Block 2
Target: Interferon regulatory factor 5, full length, phosphomimetic (IRF5, Homo sapiens, UniProt Q13568-2, residues 1-514, K96S/S451D/S453D/S456D/S462D)
Technique: protein-binding microarray
Form: double-stranded DNA, one strand shown
Matrix: in vitro
Concentration: 250 nM
Notes: 60-bp whole probe
Added: salmon DNA 0.4 mg/ml
Reference: random background probes
Direction: higher = stronger binding
Measurement: log fluorescence
Shared flanks, not repeated: GCCTAGCAC … GTCTTGATTCGCTTGACGCTGCTG
Strand = GACGGACTGCTTCTACTGACGTGCTAG; value = -0.346 z-score
Strand = GACGCTCTCCTTTTCCTGACGTGCTAG; value = 0.119 z-score
Strand = GCCACTTTCCATTTCTGTTTGTGCTAG; value = 3.72 z-score
Strand = TTAGATATCAGTTTCGAATAGTGCTAG; value = 7.07 z-score
Strand = GACGGTTTCCTTCTCCTGAAGTGCTAG; value = 0.956 z-score
Strand = TTAGGTTTCGGTTGCGGTTAGTGCTAG; value = 10.6 z-score
Strand = TCATTTCTAATGTTTTTTACTGTGCTA; value = 1.57 z-score
Strand = TTAGATCTCAGACTGGATTTGTGCTAG; value = -0.127 z-score
Strand = TTAGGTTTCGGCCTGGGTTAGTGCTAG; value = 7.7 z-score
Strand = GACGATCTCAGTTTCGTGACGTGCTAG; value = 2.13 z-score
Strand = TCAGTTTCGTATCTTCATTGTGTGCTA; value = 8.17 z-score
Strand = TTAGGAGTGGGTCTCGGTTAGTGCTAG; value = -0.0601 z-score
Strand = TCACTCCTATCTTATGATACTGTGCTA; value = 0.782 z-score
Strand = GACTGTATCGGTCTCGGGACGTGCTAG; value = 5.27 z-score
Strand = GACGGTTTCGCTATCGGGACGTGCTAG; value = 7.13 z-score
Strand = TGGGATTTTTAGTTAGAAAAGTGCTAG; value = 0.11 z-score
Strand = CACGGTCTCGGTCTCGGGACGTGCTAG; value = 0.0888 z-score
Strand = CATTTTAGTAGTTTCTAAAAGTGCTAG; value = 1.34 z-score

Block 3
Target: Histone acetyltransferase KAT6A, winged helix 2, GST fusion (KAT6A, Homo sapiens, UniProt Q92794, residues 85-181)
Technique: protein binding microarray
Form: double-stranded DNA, one strand shown
Matrix: in vitro
Concentration: not given
Notes: 8-mer, flanks averaged, mean of 2 arrays, mostly near background
Reference: not given
Direction: higher = stronger binding
Measurement: E-score
Construct (chain): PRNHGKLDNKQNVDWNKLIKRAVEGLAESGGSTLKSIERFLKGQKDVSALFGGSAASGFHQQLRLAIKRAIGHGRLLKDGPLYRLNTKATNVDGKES
Strand = GATCAGCC; value = 0.041
Strand = CCGCAACG; value = 0.145
Strand = AGACTTGG; value = -0.175
Strand = AGTGACCC; value = -0.062
Strand = GACCTACC; value = 0.00093
Strand = CCAATATC; value = -0.00257
Strand = ACCTGCGG; value = 0.143
Strand = ACAGCTCC; value = 0.00312
Strand = AAGACAAA; value = 0.0439
Strand = AATGACCA; value = -0.0565
Strand = GAGGAAAA; value = 0.0827
Strand = AGGTGCTA; value = -0.0121
Strand = CCTTACCC; value = -0.151
Strand = ATACCAGG; value = -0.0497
Strand = GGGCGTCA; value = -0.0197
Strand = ATCATAAC; value = 0.0926
Strand = AAACAGCA; value = 0.103
Strand = AGAGGAAT; value = 0.0114
Strand = AGTTGTCA; value = 0.14
Strand = AGACCTAA; value = -0.18
Strand = AGACTCCG; value = -0.0726
Strand = TAGAGCAA; value = 0.0892

Block 4
Target: ABI1, truncated, D143A, DHFR fusion (Arabidopsis thaliana)
Technique: DHFR PCA, deep sequencing
Matrix: yeast
Notes: methotrexate growth selection, single substitutions
Added: (+)-ABA 0.39 µM
Reference: wild-type fitted maximum
Direction: higher = stronger binding
Measurement: relative binding score
Parent: PYL1, truncated, DHFR fusion (Arabidopsis thaliana); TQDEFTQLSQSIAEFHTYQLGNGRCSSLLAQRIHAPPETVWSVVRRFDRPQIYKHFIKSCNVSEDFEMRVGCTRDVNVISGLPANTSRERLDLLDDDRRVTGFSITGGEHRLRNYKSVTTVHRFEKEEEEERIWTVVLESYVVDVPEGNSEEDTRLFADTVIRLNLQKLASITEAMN
Change = A13R; value = 48.5%
Change = N114D; value = 20.1%
Change = Q167I; value = 4.04%
Change = E128W; value = 8.84%
Change = E130P; value = 74.9%
Change = V40C; value = -4.44%
Change = I52E; value = 31.3%
Change = V161F; value = 26.7%
Change = V62K; value = -4.17%
Change = L93M; value = 41.2%
Change = E139F; value = -17.5%

Block 5
Target: Eukaryotic initiation factor 4A-I (EIF4A1, Homo sapiens, UniProt P60842, residues 1-406, full length assumed)
Chain of UniProt P60842 (whole entry, looked up): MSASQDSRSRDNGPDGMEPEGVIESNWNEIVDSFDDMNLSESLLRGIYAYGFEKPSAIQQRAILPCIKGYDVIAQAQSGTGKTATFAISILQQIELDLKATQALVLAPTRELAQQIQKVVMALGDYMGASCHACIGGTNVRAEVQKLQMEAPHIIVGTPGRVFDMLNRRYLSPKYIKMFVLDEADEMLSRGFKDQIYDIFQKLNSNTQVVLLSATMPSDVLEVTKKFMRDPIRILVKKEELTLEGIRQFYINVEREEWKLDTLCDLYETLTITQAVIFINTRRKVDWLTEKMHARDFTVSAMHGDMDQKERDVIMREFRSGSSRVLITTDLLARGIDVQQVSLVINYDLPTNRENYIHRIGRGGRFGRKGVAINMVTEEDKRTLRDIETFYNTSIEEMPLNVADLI
Technique: RNA Bind-n-Seq
Form: RNA
Matrix: in vitro
Concentration: 15 pmol
Notes: 4-mer, random 30-nt RNA, single round
Added: 3 µM RocA, 2 mM AMP-PNP
Reference: mean of 4-mers
Direction: higher = stronger binding
Measurement: 4-mer enrichment Z-score
Strand = UUGC; value = -0.488
Strand = UUAC; value = -1.04
Strand = GCGG; value = 1.08
Strand = UGUC; value = -0.709
Strand = AAUU; value = 0.594
Strand = ACUC; value = -1.29
Strand = GUCC; value = -1.03
Strand = UUUA; value = 0.0885
Strand = GGGA; value = 1.8
Strand = CGCC; value = -0.77
Strand = AGCG; value = 0.733
Strand = UUCC; value = -1.21
Strand = GGAU; value = 0.936
Strand = ACCA; value = -1.05
Strand = AGUU; value = 0.581
Strand = UACA; value = -1.09
Strand = AGGU; value = 1.08
Strand = AUGA; value = 1.18
Strand = GUUA; value = 0.369
Strand = UCAA; value = -0.962
Strand = GAUU; value = 0.508
Strand = GGGU; value = 1.81

Block 6
Target: RNA binding protein fox-1 homolog 2, RRM domain, GST-SBP tag (RBFOX2, Homo sapiens, UniProt O43251-10, residues 100-194)
Technique: RNA Bind-n-Seq
Form: RNA
Matrix: in vitro
Concentration: 365 nM
Notes: natural RNA segment, single round, ends assumed
Reference: no-protein control
Direction: higher = stronger binding
Measurement: RBNS enrichment (R)
Shared flanks, not repeated: GGGAGUUCUACAGUCCGACGAUC … UGGAAUUCUCGGGUGCCAA
Target sequence (chain): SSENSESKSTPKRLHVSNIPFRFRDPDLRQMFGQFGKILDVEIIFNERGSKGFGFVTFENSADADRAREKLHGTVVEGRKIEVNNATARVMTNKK
Strand = UCCAUAAAAUCCUAAGCCCUUUUAUUAAUGUAUAACCAGGAGAACAUCUGUGCCAACGGUUGGACUUUUUAUGGCUGAGAUUCGGGAGGAAGUGUGACACCAAGCAGGAG; value = 0.314
Strand = UUGUUUUUCAGAAAUUCCUGGGUUUCCUGUUAAAAAAUCUUAAAGCCCAACCUUAGGAAUAUAGUGCCCCAAAAGGCGGAUGCUUCUUCCAUUAUCUUAUUUUCUUUGAU; value = 0.676
Strand = CCCUUAACCUAUCUCUUGGGACUUAGCCCGACCCUCCCUCUCAUUUCCCAUUAAGUCUGAGAGGCAAGAGCUAGGUUAGGCAAGGAGGUGGUUGGCCAGAGAUGGGGAAC; value = 0.269
Strand = UUUGAGAGAGUAUCGUGUCGAAAGUGUGAUGUUCUACCACUUUACCAAUAACUAAUUUUAAAUACACAUUGUCCUCUCGAUUUUUGGACCAAACAGACGCUCACAGUGGA; value = 0.56
Strand = CUGCGCAGCCUGCUUUGUCCUCCCAUCUCCGUGGACUCUGUGAAAAUGCCAAAGGAAGGAAGCCUCAGGGACAGGCUGCAACUUGGAGCCCAGCGCAUCACUCUCGGCUU; value = 0.543
Strand = ACUUGAAAGGACUGACCCCAUUGUCCCUUAGAAGUACUGACGUGUGCCAUCACGCAUUUAAGACAGGAUUGGACUGUCAUCUCGCAUCAGAAACCGUUACAAUUUCCUGU; value = 0.623
Strand = GAAGUAUAUUUGAGCCAGAGGAAUGUGGCUUCCAAUCAAGUUUGUAGGAGUGGACCCUGCCACUGGCCCCAUCGGAGCCGGAAAGCCAAGGAGGAAGGGACAGAGCUAGA; value = 0.898
Strand = CAGCUCCGGAACCAGAAGUGAACCAGACCCCUCCCUCCCCCUCACUUCCUCUUCUCCGCCCUCAGCUUUCCUCUCAUGUGGCAAACGUGCGACUCUGUGGUCCUGAGUGC; value = 0.63
Strand = GACCAGUUCUCCACCUGCUCUGACUGCUCAGGAGGCCUGGGUUCCCAUCUACCCUGUCACACUUCACCAGAAGGGAGAAGGUUGUUGCCAGUCACCAGGGAGCUCACUUU; value = 0.246
Strand = AAAGAUGUGAUUUAGUUCCUAGCCCAUCAGGCAGCUCACAGCCACAUGACUAUAACUCUAGACCCAGAGAAUCUGAUGUUCUUCUCCUCUGAGGGCAUCUGAAUGCAUAU; value = 0.977
Strand = UGGACACGUCUCCUCGCAGCUGCCCUAGCAAGGGGAGACAUUGUGGUAGCUAUCAGACAUGGACAGAAACUGACUUAGUGCUCACAAGCCCCUACACCUUCUGGGCUGAA; value = 0.379
Strand = AGAUAAAGCUAUUUUAUUCUGUAUUUUUAAAACUGUUCCGUACAAAUAAAAGCUCUCCUGGACACAGUUUGCUCUUCACGUGCCUCCUUCUUGGGCUACUCUUUAAGAAA; value = 0.349

For quick reference, copied from above (block 5):
Strand = GCGG; value = 1.08
Strand = AGGU; value = 1.08
Strand = GGAU; value = 0.936
Strand = UCAA; value = -0.962
Strand = UUUA; value = 0.0885
Strand = GUUA; value = 0.369
Strand = GUCC; value = -1.03
Strand = ACUC; value = -1.29
Strand = UUGC; value = -0.488
Strand = CGCC; value = -0.77
Strand = GGGU; value = 1.81
Strand = UACA; value = -1.09
Strand = UGUC; value = -0.709
Strand = AGCG; value = 0.733
Strand = ACCA; value = -1.05
Strand = AUGA; value = 1.18
Strand = GGGA; value = 1.8
